# Published values of several laboratories.
# Parts stem from different laboratories: compare values within a part only.

# Block 1
# Cell line: HEK-293T
# Organism: VSV pseudotyped with SARS-CoV-2 spike
# Concentration: 10 µM
# Time: 16 h
Structure (SMILES),pseudovirus infection [%]
CCN(CC)CCOC(=O)C1(C2CCCCC2)CCCCC1,36.9
CCCCOCCOCCOCc1cc2c(cc1CCC)OCO2,80.3
COC(=O)[C@H](c1ccccc1Cl)N1CCc2sccc2C1,103
Cc1ccccc1C(OCCN(C)C)c1ccccc1 (stereo not drawn),40.4
CC(=O)Nc1nnc(S(N)(=O)=O)s1,92.8

# Block 2
# Target: Interferon regulatory factor 7, full length, phosphomimetic (IRF7, Homo sapiens, UniProt Q92985, residues 1-503, S101K/S471D/S472D/S475D/S476D/S477D/S483D/S484D/S487D)
# Chain of UniProt Q92985 (whole entry, unmodified, looked up): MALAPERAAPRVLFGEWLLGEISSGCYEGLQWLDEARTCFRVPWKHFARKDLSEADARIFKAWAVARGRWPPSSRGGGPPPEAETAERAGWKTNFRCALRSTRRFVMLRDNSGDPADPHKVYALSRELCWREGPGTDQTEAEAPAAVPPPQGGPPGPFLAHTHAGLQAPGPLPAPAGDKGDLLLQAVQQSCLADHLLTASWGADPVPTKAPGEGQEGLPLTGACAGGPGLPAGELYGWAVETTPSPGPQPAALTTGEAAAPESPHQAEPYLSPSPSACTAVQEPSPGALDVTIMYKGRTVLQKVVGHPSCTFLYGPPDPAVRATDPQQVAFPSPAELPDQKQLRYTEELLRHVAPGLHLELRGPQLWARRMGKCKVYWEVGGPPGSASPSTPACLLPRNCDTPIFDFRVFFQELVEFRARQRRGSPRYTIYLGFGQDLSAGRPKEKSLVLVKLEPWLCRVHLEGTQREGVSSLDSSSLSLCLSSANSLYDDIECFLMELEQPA
# Method: protein-binding microarray
# Form: double-stranded DNA, one strand shown
# Medium: in vitro
# Concentration: 250 nM
# Setting: 60-bp whole probe
# Together with: salmon DNA 0.4 mg/ml
# Reference: random background probes
# Direction: higher = stronger binding
# Constant ends, left off below: GCCTAGCAC … GTCTTGATTCGCTTGACGCTGCTG
Sequence,log fluorescence [z-score]
TTAGATTCCAGTTTGGATTAGTGCTAG,1.68
TTAGATTTCCGACTGGATTAGTGCTAG,0.138
TTAGGTTTCGGACGGGGTTAGTGCTAG,1.57
TCAGTTCTCAGACTGGGACTGTGCTAG,1.06
TCACCTCCAGGTTCTCTGACTGTGCTA,-0.162
GACGGTTTCCTTATCCTAACGTGCTAG,3.68
TCAATGCTGGCTTTTATACTGTGCTAG,-0.837
GACGAACTGGGGACTGTAGACGTGCTA,-0.604

# Block 3
# Target: Replicase polyprotein 1ab, polymerase (rep, Severe acute respiratory syndrome coronavirus 2, UniProt P0DTD1)
# Observed: enzyme activity
# Mode: inhibitor
# Concentration: 20 µM
SMILES,inhibition
COc1cc([C@@H]2c3cc4c(cc3[C@H](O)[C@H]3COC(=O)[C@H]23)OCO4)cc(OC)c1OC,2.88%
O=C(O)CCCc1ccc(N(CCCl)CCCl)cc1,5.41%
Cc1cccc(-c2[nH]c(CNc3ccccc3F)nc2-c2ccc3ncnn3c2)n1,-3.57%
O[C@H]1[C@H](O)[C@@H](O)CN2CC[C@H](O)[C@H]12,0.78%
NS(=O)(=O)c1cc2c(cc1Cl)N=CNS2(=O)=O,-3.17%
CC(C)C[C@H](NC(=O)[C@@H](O)[C@H](N)Cc1ccccc1)C(=O)O,-0.05%
COc1ccc2cc(CCC(C)=O)ccc2c1,4.32%
C=C[C@]1(C)C[C@@H](OC(=O)CS[C@@H]2C[C@H]3CC[C@@H](C2)N3C)[C@]2(C)[C@H](C)CC[C@]3(CCC(=O)[C@H]32)[C@@H](C)[C@@H]1O,-1.45%
Cn1cnc(N)c2ncnc1-2,-0.09%
O=C(O)CC1CC(c2ccccc2)=NO1 (stereo not drawn),-10.2%
C=CCNc1nc(NCC=C)nc(N2CCN(C(c3ccc(F)cc3)c3ccc(F)cc3)CC2)n1,11.7%
Cc1ccc2[nH]c(=O)c(C3=NN(C(=O)CCC(=O)O)C(c4ccc(Br)cc4)C3)c(-c3ccccc3)c2c1 (stereo not drawn),30.7%
O=C(/C=C/c1ccccc1)NC(NC(=S)Nc1ccc(Cl)cc1)C(Cl)(Cl)Cl (stereo not drawn),0.99%
COc1ccc2c(c1OC)C(=O)O[C@@H]2[C@H]1c2c(cc3c(c2OC)OCO3)CCN1C,20.4%
Nc1nc2c(c(=O)[nH]1)C[C@@H](CCc1ccc(C(=O)N[C@@H](CCC(=O)O)C(=O)O)cc1)CN2,5.56%
C=C1[C@@H](C)[C@H]2[C@H](Cc3ccccc3)NC(=O)[C@]23OC(=O)/C=C/[C@H](O)CCC[C@@H](C)C/C=C/[C@H]3[C@@H]1O,-2.1%
CCCCCS(=O)(=O)CCCCCCCCCCn1c(-c2ccc(O)cc2)c(C)c2cc(O)ccc21,1.14%
COc1cc(Nc2c(C#N)cnc3cc(OCCCN4CCN(C)CC4)c(OC)cc23)c(Cl)cc1Cl,15.5%
CCCNC(C)(C)COC(=O)c1ccccc1,-1.88%
NC(N)=NC(N)=Nc1ccccc1,-10.8%
C=CC1=C(C(=O)O)N2C(=O)[C@@H](NC(=O)/C(=N\O)c3csc(N)n3)[C@H]2SC1,2.04%
CC(C)(C#N)c1ccc(N2C(=O)OCc3cnc4ccc(-c5cnc6ccccc6c5)cc4c32)cc1,-3.74%

# Block 4
# Target: RNA binding protein fox-1 homolog 2, RRM domain, GST-SBP tag (RBFOX2, Homo sapiens, UniProt O43251-10, residues 100-194)
# Method: RNA Bind-n-Seq
# Form: RNA
# Medium: in vitro
# Concentration: 365 nM
# Setting: natural RNA segment, single round, ends assumed
# Reference: no-protein control
# Direction: higher = stronger binding
# Target sequence (chain): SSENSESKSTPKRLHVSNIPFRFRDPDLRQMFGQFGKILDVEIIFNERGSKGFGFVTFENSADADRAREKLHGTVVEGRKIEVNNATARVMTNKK
Sequence,RBNS enrichment (R)
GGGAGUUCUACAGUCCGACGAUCAAGGUAGCUCACCUAACAAAGCUCCUCCAUCUCAGCAUGCCAGACCCACUUUGAAAUCUCACAGAAUCUUGCUGGUAAUGGUGACUUUAGAACUAGUAGACCCUUUUUCCUGGAAUUCUCGGGUGCCAA,1.3
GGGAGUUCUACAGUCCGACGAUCGGUCACUCUUUCCCUCUUACUGUAGUUUCCUAGAUUUAUCUGAGGAAAAGUGAGAUGUCUUCACGCUAAGGCUCCAGUGUUCUGUCAGAGACCUGAAUGCUCUAUUUGCCUGGAAUUCUCGGGUGCCAA,0.541
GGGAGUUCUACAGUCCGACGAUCUAACUGCUUCUUGGAGCUUUGGAAUAUUUUAUCCUGUAUUCUUGUUUGAAUUCCUCCUCUAUUUAAGAUAUAUACAUGGAAUCGAAGUGUUUAUGUAAUAGUUCUAUCCUUGGAAUUCUCGGGUGCCAA,0.457
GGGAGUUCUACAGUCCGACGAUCGUAUAAGAAACUGCAUCCUGCCUCCAGCCCCCUUGGGGCAGGGAUUGGCUUGGAACAGAGGUUGGCCCCGCCAGGCCGGGGAAGGUUGGAGAAGCCCCCAGGAGGAGGGCUGGAAUUCUCGGGUGCCAA,0.837
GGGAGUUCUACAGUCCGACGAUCCAGUCCACCCCUGCCUAAGGCUCAGGCUACCUGCUUUGGGGCACAGCUUCCUGGUACUCACAGCAUCUCAGAACAGGGUGCUUCCCUCUGCCUCCAGCUCCAAGGACUCUUGGAAUUCUCGGGUGCCAA,0.654
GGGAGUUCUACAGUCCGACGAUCUUCUUACUGUGUAAAAGAAGCUAGCUUAGUCUGUACCUAGAAUUCCUCUUGGUUAGAGGAGUGAGUUUCUUUUUUUUCCAUUAACUUGUUUCCUGAUCGAGAAACACGUGUGGAAUUCUCGGGUGCCAA,0.554
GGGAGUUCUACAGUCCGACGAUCGCUUCAGACUCUUAAUGCUUUUAUAUAAAGCUAUCAACUGUAUGUUGAUCACAGUUUAUAAGAAAGAACAAAUCAAGAUUGGCAAUCCUUGCCGAUCUUUUAGAAAUACCUGGAAUUCUCGGGUGCCAA,0.404
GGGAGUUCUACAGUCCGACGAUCUCAAAGAGACAAGGGACUCGUUUCUACCCCUGGUAAUGCGAGGUGCUGCUUCUGUGUGUCAAGGCUUCAACCAGGUCCCUCUUCCUCUGACUCUGGCACCAUGCCAGCUGUGGAAUUCUCGGGUGCCAA,0.339

# Block 5
# Target: Ras GTPase-activating protein-binding protein 1, C-terminal RGG region (G3BP1, Homo sapiens, UniProt Q13283)
# Chain of UniProt Q13283 (whole entry, looked up): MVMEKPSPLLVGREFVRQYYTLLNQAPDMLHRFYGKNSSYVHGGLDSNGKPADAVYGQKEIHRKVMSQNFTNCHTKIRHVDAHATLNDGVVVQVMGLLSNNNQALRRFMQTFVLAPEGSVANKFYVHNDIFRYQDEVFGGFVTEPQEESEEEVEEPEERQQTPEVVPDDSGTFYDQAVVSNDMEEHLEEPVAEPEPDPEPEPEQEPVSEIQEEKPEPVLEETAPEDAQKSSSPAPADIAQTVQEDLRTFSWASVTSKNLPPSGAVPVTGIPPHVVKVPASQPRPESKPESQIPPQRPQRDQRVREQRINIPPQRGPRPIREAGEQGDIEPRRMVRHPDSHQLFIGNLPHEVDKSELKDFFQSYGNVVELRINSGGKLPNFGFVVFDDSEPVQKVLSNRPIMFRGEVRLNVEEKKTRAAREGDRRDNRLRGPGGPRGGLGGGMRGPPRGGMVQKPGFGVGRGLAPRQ
# Method: RNA Bind-n-Seq
# Form: RNA
# Medium: in vitro
# Concentration: 1 µM
# Setting: whole 134-nt RNA, ends assumed
# Together with: 150 mM KCl
# Reference: input library
# Direction: higher = stronger binding
Sequence,log2 enrichment
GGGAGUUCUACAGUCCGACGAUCAAGUCCUGUGCUACACAUCGUAUGUACCGAAUCGGGUUUGGGUGGGAAAAAAAGGGAAAGUAUUAUGUUACGCCGUUCGGAUCUGCACUUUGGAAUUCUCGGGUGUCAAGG,0.302
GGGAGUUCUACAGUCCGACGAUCCCUCAAGUCCUGUGCUACACAUCGUAUGUACCGAAUCGGGGCGGGCGGGCGGGAAAGUAUUAUGUUACGCCGUUCGGAUCUGCACUUCCAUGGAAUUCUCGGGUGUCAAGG,1.75
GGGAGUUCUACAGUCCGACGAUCUGGGAGGUGGAUUUUGUUUAUUUUUUUACCUCAUUUCCAGGGGUGGGAAUUUUUUUUUAAUAUGUGUCAUGAAUAAAGUUGUUUUUGAAAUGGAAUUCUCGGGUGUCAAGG,3.45
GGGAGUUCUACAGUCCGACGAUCUCGGAGGUGGAUUUUGUUUAUUUUUUUAGCUCAUUUCCAGGGGUGGGAAUUUUUUUUUAAUAUGUGUCAUGAAUAAAGUUGUUUUUGAAAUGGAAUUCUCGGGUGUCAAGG,3.21
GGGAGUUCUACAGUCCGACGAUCAGUCCUGUGCUACACAUCGUAUGUACCGAAUCGGGUUUGGGUUUUUUUGGGUUUGGGAAAGUAUUAUGUUACGCCGUUCGGAUCUGCACUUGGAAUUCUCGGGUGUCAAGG,0.697

# Further values, each from its own experiment
Structure (SMILES),target or system,test,test system,setting,endpoint,value
CC(=O)O/N=C1\C(=O)N(Cc2cc(Cl)ccc2Cl)c2ccc(Cl)cc21,"Replicase polyprotein 1ab, main protease (rep, Severe acute respiratory syndrome coronavirus 2, UniProt P0DTD1)","enzyme activity, inhibitor",,"20 µM, hit confirmation, together with: DTT",inhibition,54.1%
CC(C)C[C@@H](C=O)NC(=O)[C@H](CC(C)C)NC(=O)[C@H](CC(C)C)NC(=O)OCc1ccccc1,SARS-CoV-2,"viral replication, qPCR",Vero E6,,IC50,120 nM
Cn1sc(=O)n(Cc2ccccc2)c1=O,chymotrypsin,"enzyme activity, inhibitor",,"10 µM, with DTT",inhibition,4%
